Published values gathered from unrelated publications.
Each numbered part is a random draw from the data of one study; scales do not carry over between parts.

Block 1 — method: aptamer microarray, sandwich; form: DNA with 2'F-ANA; matrix: in vitro; concentration: 200 nM; together with: Cy3 exosite-II aptamer, 400 nM; direction: higher = stronger binding; endpoint: mean fluorescence intensity; sequence: GGTTGGTGTGGTTGG
Target: Prothrombin, mature alpha-thrombin (F2, Homo sapiens, UniProt P00734)
Notes: whole 15-mer aptamer, many near background
Modification = 2'F-ANA at 1 5 6 7 9 10 11 13 14 15; result = 47 a.u.
Modification = 2'F-ANA at 3 4 5 6 7 8 9 14 15; result = 49.7 a.u.
Modification = 2'F-ANA at 2 3 5 8 11 13 14 15; result = 53.6 a.u.
Modification = 2'F-ANA at 2 3 4 6 8 10 15; result = 211 a.u.
Modification = 2'F-ANA at 1 3 7 8 9 13 14 15; result = 179 a.u.
Modification = 2'F-ANA at 2 3 6 7 9 10 15; result = 342 a.u.
Modification = 2'F-ANA at 2 4 7 10 11; result = 92.3 a.u.
Modification = 2'F-ANA at 1 2 5 7 9 10 11 14 15; result = 53.9 a.u.
Modification = 2'F-ANA at 2 7 8 9 10 14 15; result = 87.7 a.u.
Modification = 2'F-ANA at 1 2 4 6 8 12 13 15; result = 200 a.u.
Modification = 2'F-ANA at 2 4 5 8 9 11 13 14 15; result = 50.1 a.u.
Modification = 2'F-ANA at 3 7 8 9 10 11 12 14 15; result = 375 a.u.
Modification = 2'F-ANA at 3 4 5 6 8 13; result = 64.6 a.u.
Modification = 2'F-ANA at 2 4 10 12 15; result = 137 a.u.
Modification = 2'F-ANA at 1 2 4 5 6 9 10 12 13 14; result = 56.8 a.u.
Modification = 2'F-ANA at 3 5 10 14; result = 73.6 a.u.
Modification = 2'F-ANA at 3 4 5 6 9 10 12 13 14; result = 99.5 a.u.
Modification = 2'F-ANA at 4 5 11 12 13 15; result = 73.6 a.u.
Modification = 2'F-ANA at 1 2 4 6 7 8 9 10 12 13; result = 56.6 a.u.
Modification = 2'F-ANA at 1 2 3 4 7 9 10 12 13; result = 65.3 a.u.
Modification = 2'F-ANA at 2 4 7 10 11 12 13; result = 98.5 a.u.
Modification = 2'F-ANA at 2 5 7 8 10; result = 47.4 a.u.
Modification = 2'F-ANA at 3 4 6 7 8 9 11 13 14 15; result = 230 a.u.
Modification = 2'F-ANA at 1 3 5 8 9 13 15; result = 80.3 a.u.

Block 2 — method: universal PBM; form: double-stranded DNA, one strand shown; matrix: in vitro; concentration: 600 nM; direction: higher = stronger binding; endpoint: E-score
Target: Sal-like protein 4, full length isoform A (SALL4, Homo sapiens, UniProt Q9UJQ4, residues 1-1053)
Sequence of UniProt Q9UJQ4 (whole entry, looked up): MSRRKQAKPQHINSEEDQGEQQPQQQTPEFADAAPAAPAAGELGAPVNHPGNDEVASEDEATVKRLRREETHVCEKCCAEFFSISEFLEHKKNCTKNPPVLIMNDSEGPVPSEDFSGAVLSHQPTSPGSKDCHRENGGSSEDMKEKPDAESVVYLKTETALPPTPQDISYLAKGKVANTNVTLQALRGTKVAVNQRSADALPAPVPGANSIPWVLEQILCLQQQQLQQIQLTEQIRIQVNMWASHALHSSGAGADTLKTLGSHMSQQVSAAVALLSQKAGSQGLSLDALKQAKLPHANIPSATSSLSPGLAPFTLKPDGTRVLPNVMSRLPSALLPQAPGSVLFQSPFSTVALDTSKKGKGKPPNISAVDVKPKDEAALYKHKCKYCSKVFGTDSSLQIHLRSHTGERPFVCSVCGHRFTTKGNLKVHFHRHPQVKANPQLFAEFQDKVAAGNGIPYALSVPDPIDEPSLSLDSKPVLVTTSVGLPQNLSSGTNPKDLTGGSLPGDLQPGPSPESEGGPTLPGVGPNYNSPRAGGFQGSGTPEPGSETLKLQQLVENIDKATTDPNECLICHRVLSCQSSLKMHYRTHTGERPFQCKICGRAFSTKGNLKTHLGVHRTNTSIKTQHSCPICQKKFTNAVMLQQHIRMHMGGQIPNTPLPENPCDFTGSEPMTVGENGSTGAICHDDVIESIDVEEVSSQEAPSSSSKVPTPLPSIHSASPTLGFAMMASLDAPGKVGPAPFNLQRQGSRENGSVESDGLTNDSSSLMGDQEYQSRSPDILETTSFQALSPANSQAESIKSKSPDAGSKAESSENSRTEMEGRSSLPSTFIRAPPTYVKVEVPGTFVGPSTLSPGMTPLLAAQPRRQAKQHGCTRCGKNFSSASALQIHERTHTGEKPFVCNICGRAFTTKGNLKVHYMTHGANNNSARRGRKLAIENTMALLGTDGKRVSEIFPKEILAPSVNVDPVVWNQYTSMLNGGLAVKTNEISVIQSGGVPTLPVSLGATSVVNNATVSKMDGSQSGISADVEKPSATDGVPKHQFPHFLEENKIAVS
Notes: 8-mer, flanks averaged, mean of replicates
Sequence = CAATCCAA; result = 0.0894
Sequence = ACTTCCAT; result = 0.102
Sequence = TCGTCTAA; result = -0.0146
Sequence = CCGTAGTA; result = -0.00982
Sequence = CGCAGGGA; result = -0.211
Sequence = AGGGGAGC; result = -0.389
Sequence = CGGGCCGA; result = -0.466
Sequence = GAATGGAC; result = -0.0886
Sequence = GAGCAACC; result = -0.174
Sequence = CATCCGCG; result = -0.0987
Sequence = AAAACACC; result = -0.0461
Sequence = AGGGTAGA; result = -0.0892
Sequence = AAAAACGT; result = 0.114
Sequence = AAAACCTG; result = 0.0215
Sequence = CGGGACAA; result = -0.0765

Block 3 — method: RNA Bind-n-Seq; form: RNA; matrix: in vitro; concentration: 365 nM; relative to: no-protein control; direction: higher = stronger binding; endpoint: RBNS enrichment (R)
Target: RNA binding protein fox-1 homolog 2, RRM domain, GST-SBP tag (RBFOX2, Homo sapiens, UniProt O43251-10, residues 100-194)
Notes: natural RNA segment, single round, ends assumed
Shared flanks, not repeated: GGGAGUUCUACAGUCCGACGAUC … UGGAAUUCUCGGGUGCCAA
Construct (chain): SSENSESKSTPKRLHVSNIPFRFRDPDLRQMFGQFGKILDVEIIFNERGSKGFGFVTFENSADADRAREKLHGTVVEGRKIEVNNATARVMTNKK
Sequence = CCACACAAAUUGAUCUUCUAUCAUCUUGGAAUCUGAAUUGCAGGGAGGAGCAGCAUGUAAGACGACCGUUUAAUUCAGGCAUUCCGAAGGCAUGAGCGCAUGGAUUCUGU; result = 29.8
Sequence = ACUUCGCUUGUAUUGUAAAAGGAGGGUAUAUUUGCACUUAUGUAUACUUUGACAGUUUGCCAAGAUAUUUUGAUGUAAGGUUUUUUUUUUUUCAAUAAAAUGUGUAUAAC; result = 2.03
Sequence = CCAGAUACCUUGGCCGCCAAACUUCGUUUUCAAACACUGUGUUUUAUUGUGUAGACCUUGAAAACCACGGUUUCAGUGAAGAAGGAUUCUGUAGGGUUCACUCUUCUGCA; result = 1.19
Sequence = CUAUGUUACACGUGAGAUUAAAACCAAUUUUUUCCCCAUUUUUUCUCCUUUUUUCUCUUGCUGCCCACAUUGUGCCUUUAUUUUAUGAGCCCCAGUUUUCUGGGCUUAGU; result = 1.33
Sequence = UGGGGCUGUGGCCCGUGCUGUAGUCUAUGGGCUCCUCCGUUCAAGCUGCAGCCCUGCUGGUCCCUUCAGCUCCACGCUGCUGCUCUGGCGAGGUUUUAAAGGGUGCCAUG; result = 0.361
Sequence = AGUCAGGGCAGGGCUCCAGGGGAUAACAGGUGUCCUGCUUCUCCUUUGGCAAUGCAAAAUGACUCCUGACUGUUCCAAAUACUGAAAAGAAGUCUGCCUCUGAGUUACAG; result = 0.241
Sequence = AAUUUAGAAAAACAACAAAGGCUGUUUUUCCUAAUUUUGGCAUGAACCCCUUGUUCCAAGUGAAGGCGGCAUCACGAGUGGCUCCGAGGCGUCUGCAGUGCCCAGGGUGC; result = 0.492
Sequence = AAGGCCAAGUACCCCAACUCUCCCCGACGCUGCUGAGCCCUUCCCUCCCCUAAUCUGAGAAGUCAGCCUCUUGGCUCCUCAGGCCACCAUUUAGGCCUGACUGGGGUAAG; result = 0.316

Block 4 — method: EMSA with sequencing; form: double-stranded DNA, one strand shown; matrix: in vitro; concentration: 10 and 20 nM; relative to: negative control set to 0; direction: higher = stronger binding; endpoint: normalised bound fraction
Target: Hepatocyte nuclear factor 3-alpha (Foxa1, Mus musculus, UniProt P35582, residues 1-468, full length assumed)
Notes: whole designed probe, mean of two concentrations, ends assumed
Shared flanks, not repeated: GTGAGCGGTGCCCATTGATGGGGAAC … TTTCACTGGGATCGTGGGGAC
Target sequence (chain): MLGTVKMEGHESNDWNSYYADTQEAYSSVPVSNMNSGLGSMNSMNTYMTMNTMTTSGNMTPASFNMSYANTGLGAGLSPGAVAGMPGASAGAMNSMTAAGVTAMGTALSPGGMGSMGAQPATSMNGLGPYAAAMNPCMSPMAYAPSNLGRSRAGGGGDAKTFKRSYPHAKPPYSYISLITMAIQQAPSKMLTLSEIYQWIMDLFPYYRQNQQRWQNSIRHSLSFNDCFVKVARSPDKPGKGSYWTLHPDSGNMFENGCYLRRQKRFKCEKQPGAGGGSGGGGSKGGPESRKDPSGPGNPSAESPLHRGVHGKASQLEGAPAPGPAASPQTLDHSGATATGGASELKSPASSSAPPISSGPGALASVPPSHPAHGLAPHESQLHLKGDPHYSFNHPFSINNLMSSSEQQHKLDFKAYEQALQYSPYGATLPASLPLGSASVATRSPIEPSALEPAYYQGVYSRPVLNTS
Sequence = TCTGCGTCTAGCTCTGGAGCTCAGACTGGAACTGCTCAGCAGGAAACAGGTCTTGCTGCTAGTAAATTACCATGACTGTGTTTACATGGTGAGTCATCTGGCATAGGTCAGCTCTCCTTCTCTCCAAGCAGTCCCTTGAGCTGATGATTTATCTGGGTAAATCACATTCCAAATCAATTTTATTTTTGGCTGT; result = 0.129 ratio
Sequence = ATGTGCTAAAAATACAAGACTTGCTTACGCAGAGAGCCGGGAGCTATGTTCCAGTGAGGGTGGAAACAAAAGCCTCAGTATAAGACTGTCAGGTGTTTACACAAGCGTCTGGTTTGCTCATGTGGCAACACGAGGTTGCTGGACTCCACATGCTGAGGCTCAAAGTAGAAATCACTGATCTTATGTCACATAT; result = 0.409 ratio
Sequence = ATCTTCCCCCTCTTCCTTGCCCCACCAGCTCACCTACGGGGGTTATTTGCACAAAGGAAAATAAATAAAGCCGGCATTCGTTAACGCAGTTCTGGCGCAAACTGCTGTTTGCTCTGCATGAATCATGGTCCTTACGCGAGGCGTGGCTCCGGGAGAGCAAAGCACCGTGTCAGGCGCATGATCCGGGGTGGCC; result = 0.393 ratio
Sequence = ATCTTCCCCCTCTTCCTTGCCCCACCAGCTCACCTTCCCGGGTTATTTGCAGATAGGAAAATAAATAAAGCCGGCATTCGTTAACCCTCTTCACGCGCATACTGCTGTTTGCTCTGCATCTAACATGGTCCTTACGCGACGCCAGGCTCCGGGAGAGCAAAGCACCGTGTCAGGCGCATGATCCGGGCTCGCC; result = 0.351 ratio
Sequence = ATCTTCCCCCTCTTCCTTGCCCCACCAGCTCACCTACGGGGGTTATTTGCACAAAGGAAAATAAATAAAGCCGGCATTCGTTAACCCTCTTCTGGCGCAAACTGCTGTTTGCTCTGGATCTAACATGGTCCTTTGGCGACGCCAGGCTCCGGGAGAGCAAAGCACCGTGTCAGGGCCATGATCCGGGGTGGCC; result = 0.382 ratio

Some of these lines once more (block 1):
Modification = 2'F-ANA at 1 3 7 8 9 13 14 15; result = 179 a.u.
Modification = 2'F-ANA at 2 3 6 7 9 10 15; result = 342 a.u.
Modification = 2'F-ANA at 2 4 7 10 11; result = 92.3 a.u.
Modification = 2'F-ANA at 1 2 5 7 9 10 11 14 15; result = 53.9 a.u.
Modification = 2'F-ANA at 2 7 8 9 10 14 15; result = 87.7 a.u.
Modification = 2'F-ANA at 1 2 4 6 8 12 13 15; result = 200 a.u.
